{"data": "Assay results of several laboratories", "note": "A part holds a random share of what one study measured."}
{"data": "Block 1", "target": "Interferon regulatory factor 5, full length, phosphomimetic (IRF5, Homo sapiens, UniProt Q13568-2, residues 1-514, K96S/S451D/S453D/S456D/S462D)", "technique": "protein-binding microarray", "molecule type": "double-stranded DNA, one strand shown", "medium": "in vitro", "concentration": "250 nM", "setting": "60-bp whole probe", "with": "salmon DNA 0.4 mg/ml", "reference": "random background probes", "reading": "higher = stronger binding", "shared flanks, not repeated": "GCCTAGCAC … GTCTTGATTCGCTTGACGCTGCTG"}
{"Strand": "GACGAACTCAGTTTCGAGACGTGCTAG", "log fluorescence": "5.42 z-score"}
{"Strand": "TTAGATTTCAATCTCGATTAGTGCTAG", "log fluorescence": "1.4 z-score"}
{"Strand": "TTAGGACTGGGGACTGCGTTAGTGCTA", "log fluorescence": "-0.395 z-score"}
{"Strand": "GAGCTCCTCCTTCTCTAACCGTGCTAG", "log fluorescence": "-0.416 z-score"}
{"Strand": "TCCATTTTCTGAATGCTACTGTGCTAG", "log fluorescence": "1.25 z-score"}
{"Strand": "TTAGGTATCGACTTTCGGTTCGTGCTA", "log fluorescence": "9.38 z-score"}
{"Strand": "GACGGTTTCCTTTCCCTAACGTGCTAG", "log fluorescence": "1.94 z-score"}
{"Strand": "GATTTTTTCTGCTTAGAGCTGTGCTAG", "log fluorescence": "1.41 z-score"}
{"data": "Block 2", "target": "Protein max, full length (MAX, Homo sapiens, UniProt P61244-2, residues 1-151)", "technique": "protein-binding microarray", "molecule type": "double-stranded DNA, one strand shown", "medium": "in vitro", "concentration": "not given", "setting": "k-mer, scored over probes, only values ≥0.25", "reading": "higher = stronger binding"}
{"Strand": "CATGGTTA", "E-score": 0.293}
{"Strand": "CATATGGG", "E-score": 0.342}
{"Strand": "ATGAGGTC", "E-score": 0.28}
{"Strand": "ATAACCAC", "E-score": 0.292}
{"Strand": "GGCCATGA", "E-score": 0.275}
{"Strand": "ACCATGCA", "E-score": 0.366}
{"Strand": "ATGCGGAG", "E-score": 0.259}
{"Strand": "GCCACACC", "E-score": 0.298}
{"data": "Block 3", "target": "Prothrombin, mature alpha-thrombin (F2, Homo sapiens, UniProt P00734)", "technique": "aptamer microarray, sandwich", "molecule type": "DNA with 2'F-ANA", "medium": "in vitro", "concentration": "200 nM", "setting": "whole 15-mer aptamer, many near background", "with": "Cy3 exosite-II aptamer, 400 nM", "reading": "higher = stronger binding", "strand": "GGTTGGTGTGGTTGG"}
{"Modification": "2'F-ANA at 3 5 6 9 11 14 15", "mean fluorescence intensity [a.u.]": 48.9}
{"Modification": "2'F-ANA at 5 7 9 10 11 12 13 15", "mean fluorescence intensity [a.u.]": 49.8}
{"Modification": "2'F-ANA at 1 2 3 4 5 6 8 12", "mean fluorescence intensity [a.u.]": 123}
{"Modification": "2'F-ANA at 1 5 10 11 13 15", "mean fluorescence intensity [a.u.]": 47.1}
{"Modification": "2'F-ANA at 1 2 5 6 7 9 11 12 13 14 15", "mean fluorescence intensity [a.u.]": 50.5}
{"Modification": "2'F-ANA at 1 3 4 6 10 11 13 15", "mean fluorescence intensity [a.u.]": 56.2}
{"Modification": "2'F-ANA at 3 5 7 8 9 10 12 13 14 15", "mean fluorescence intensity [a.u.]": 69.3}
{"Modification": "2'F-ANA at 4 7 12 14 15", "mean fluorescence intensity [a.u.]": 139}
{"data": "Mixed results"}
{"Structure (SMILES)": "CCCN(CC(=O)OC(C)(C)C)C(=O)Cc1c(C)[nH]c2ccnn2c1=O", "host": "human", "medium": "microsomes or S9", "concentration": "2 µM", "time": "0.5 h", "quantity": "remaining compound", "result": "72.8%"}
{"note": "A few entries again (block 1):"}
{"Strand": "TCCATTTTCTGAATGCTACTGTGCTAG", "log fluorescence": "1.25 z-score"}
{"Strand": "TTAGGTATCGACTTTCGGTTCGTGCTA", "log fluorescence": "9.38 z-score"}
{"Strand": "GACGGTTTCCTTTCCCTAACGTGCTAG", "log fluorescence": "1.94 z-score"}
{"Strand": "GATTTTTTCTGCTTAGAGCTGTGCTAG", "log fluorescence": "1.41 z-score"}
